Measurements of several laboratories.
Compare with care: the assays were run in different laboratories. ± marks the error that the study gave.
mutY full length assumed E37S: mutY full length assumed E37S (Escherichia coli, UniProt P17802)
protein holo: protein holo (Bacillus clausii, UniProt A0A268NVG2)
Chain of UniProt Q96T21 (whole entry, unmodified, looked up): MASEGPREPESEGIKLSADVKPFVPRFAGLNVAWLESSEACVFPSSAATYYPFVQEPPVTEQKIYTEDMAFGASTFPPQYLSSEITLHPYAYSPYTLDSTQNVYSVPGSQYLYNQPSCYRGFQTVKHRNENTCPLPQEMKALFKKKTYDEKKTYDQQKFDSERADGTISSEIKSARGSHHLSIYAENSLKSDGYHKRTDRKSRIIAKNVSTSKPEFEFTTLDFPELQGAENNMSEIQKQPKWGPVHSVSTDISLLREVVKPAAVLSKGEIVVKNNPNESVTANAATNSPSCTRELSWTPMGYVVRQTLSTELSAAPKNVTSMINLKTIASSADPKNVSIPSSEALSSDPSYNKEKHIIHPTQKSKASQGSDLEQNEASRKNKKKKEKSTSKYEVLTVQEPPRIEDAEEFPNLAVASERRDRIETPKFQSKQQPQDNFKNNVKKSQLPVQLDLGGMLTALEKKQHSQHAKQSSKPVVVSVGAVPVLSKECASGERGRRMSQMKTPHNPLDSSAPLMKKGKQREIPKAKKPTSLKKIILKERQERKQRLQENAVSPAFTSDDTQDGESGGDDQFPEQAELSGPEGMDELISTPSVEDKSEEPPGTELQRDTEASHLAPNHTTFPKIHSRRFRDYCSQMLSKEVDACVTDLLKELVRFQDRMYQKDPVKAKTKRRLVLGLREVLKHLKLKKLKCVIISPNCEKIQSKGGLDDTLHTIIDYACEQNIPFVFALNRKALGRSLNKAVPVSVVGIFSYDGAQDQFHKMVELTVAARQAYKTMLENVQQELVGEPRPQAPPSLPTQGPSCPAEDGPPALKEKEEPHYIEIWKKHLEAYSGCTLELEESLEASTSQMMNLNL
Chain of UniProt Q01085 (whole entry, looked up): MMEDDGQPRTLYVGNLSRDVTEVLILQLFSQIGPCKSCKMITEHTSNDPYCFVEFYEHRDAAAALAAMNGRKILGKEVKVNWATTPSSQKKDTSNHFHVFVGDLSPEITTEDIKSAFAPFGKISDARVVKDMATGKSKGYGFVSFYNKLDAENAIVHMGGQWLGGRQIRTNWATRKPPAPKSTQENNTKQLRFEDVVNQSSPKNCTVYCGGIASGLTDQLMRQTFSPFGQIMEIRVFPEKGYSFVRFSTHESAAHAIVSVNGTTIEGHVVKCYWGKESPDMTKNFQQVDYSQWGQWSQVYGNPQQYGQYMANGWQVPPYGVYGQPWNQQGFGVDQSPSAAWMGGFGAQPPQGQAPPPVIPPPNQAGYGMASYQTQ
Chain of UniProt Q16637 (whole entry, looked up): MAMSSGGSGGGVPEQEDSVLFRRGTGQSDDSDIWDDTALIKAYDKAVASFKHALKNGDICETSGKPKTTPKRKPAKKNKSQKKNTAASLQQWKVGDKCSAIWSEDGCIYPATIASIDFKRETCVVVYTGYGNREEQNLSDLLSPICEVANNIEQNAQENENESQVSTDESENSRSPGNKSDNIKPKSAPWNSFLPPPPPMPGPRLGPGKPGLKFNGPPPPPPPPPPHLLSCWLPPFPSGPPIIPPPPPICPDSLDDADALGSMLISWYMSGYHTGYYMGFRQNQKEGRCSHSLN
Chain of UniProt P0DX76 (whole entry, looked up): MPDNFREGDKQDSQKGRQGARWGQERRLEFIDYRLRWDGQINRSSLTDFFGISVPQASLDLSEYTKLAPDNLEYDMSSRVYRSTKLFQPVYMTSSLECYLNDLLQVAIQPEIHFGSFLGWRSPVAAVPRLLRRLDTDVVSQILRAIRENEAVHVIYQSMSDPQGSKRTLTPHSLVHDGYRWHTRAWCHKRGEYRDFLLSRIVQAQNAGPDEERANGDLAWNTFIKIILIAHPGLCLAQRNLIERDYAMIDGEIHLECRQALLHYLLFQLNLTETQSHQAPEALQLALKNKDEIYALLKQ

Strand	target	technique	form	notes	together with	Kd [nM]
DNA 1 CGATCATGGAGGCTAGCGCTCCCGTTACAG / DNA 2 CTGTAACGGGAGCGATAGCCTCCATGATCG (dsDNA; 30 bp, central 9-deazaguanine:A)	mutY full length assumed E37S	EMSA	double-stranded DNA			0.6 ± 0.4
GCAGCCCAUGAUGGCUGAAUCCGAAAUCCUCGAUGGGUCCAGGUUGAUGUCUUUGCAGC (structured RNA; internal loop hairpin)	SECISBP2 515-854 (Homo sapiens, UniProt Q96T21)	EMSA	folded RNA			800
CTGACCTCATCATCTCCCTACACACTGACACTTACAATGTGGTCAGTT (dsDNA)	protein holo	fluorescence titration	double-stranded DNA, one strand shown	Mg2+ 5 mM, apparent, Hill fit	PLP	22.8 ± 2.7
CGGGGCGGGCCGGGGGCGGGGT (G-quadruplex DNA; parallel in K+)	APEX1 full length assumed D210A (Homo sapiens, UniProt P27695)	fluorescence anisotropy	folded DNA	K+ 140 mM		20
GCAGCCCAUGAUGGCUGAAUCCUGAAAACCAGCCCGCUGGUGGGGGUCCAGCUUGAUGUCUUUGCAGC (structured RNA)	SECISBP2 (Homo sapiens, UniProt Q96T21)	EMSA	folded RNA			470 ± 40
TTTTTTTTTTTTTTTTTTTT (ssDNA)	TIAL1 1-94 (Homo sapiens, UniProt Q01085)	SPR	single-stranded DNA			20900 ± 550
UGGAGCCUUCCACCCCGGCACUCAUGACGGUCUGCCGAAAUCCUCGAUGGCAGUCCCGAGGACCUGGCGUGCAUCCCCGCCGGAGGAAGGUCCA (structured RNA)	SECISBP2 (Homo sapiens, UniProt Q96T21)	EMSA	folded RNA			530 ± 120
GGGCUCACCACGCACGUGCGCUGGACUAUUACGCGUGAGGCCUCACCACGGCAAGCU (structured RNA)	Survival motor neuron protein 1-294 (Homo sapiens, UniProt Q16637)	filter binding	folded RNA	apparent		20
DNA 1 CGATCATGGAGGCTAACGCTCCCGTTACAG / DNA 2 CTGTAACGGGAGCGATAGCCTCCATGATCG (dsDNA; 30 bp, central 8-oxoadenine:A)	mutY full length assumed E37S	EMSA	double-stranded DNA			0.04 ± 0.02
UGGAGCCUUCCACCCCGGCACUCAUGACGGUCUGCCUGAAAACCAGCCCGCUGGUGGGGCAGUCCCGAGGACCUGGCGUGCAUCCCCGCCGGAGGAAGGUCCA (structured RNA)	SECISBP2 344-854 I535S/I536V/L537R/K538V/E539Y (Homo sapiens, UniProt Q96T21)	EMSA	folded RNA			600 ± 45
CTGACCTCATCATTTTCTTAAAAACTGACACTTACAATGTGGTCAGTT (dsDNA)	protein holo R370Q/R371Q (Bacillus clausii, UniProt A0A268NVG2)	fluorescence titration	double-stranded DNA, one strand shown	Mg2+ 5 mM, apparent, Hill fit	PLP	18.8 ± 0.8
GGGGGGUUUUUUUUUUUUUUUUUGGGGG (ssRNA)	TIAL1 96-175 (Homo sapiens, UniProt Q01085)	SPR	RNA			5300 ± 200
RNA 1 GGAGGAUGUUAAUUGGCGUGUCUUGUCUGCAACGGUAUUC / RNA 2 GAAUACCGUUGCAGACAAGACACGCCAAUUAACAUCCUCC (dsRNA)	EIF2AK2 1-551 I102A (Homo sapiens, UniProt P19525)	sedimentation velocity AUC	double-stranded RNA	Kd1 first PKR		184
GGGGGGG (ssDNA)	capW 1-299 (Escherichia coli, UniProt P0DX76)	fluorescence polarization	single-stranded DNA	range over sequences		9540
DNA 1 CGATCATGGAGGCTAGCGCTCCCGTTACAG / DNA 2 CTGTAACGGGAGCGATAGCCTCCATGATCG (dsDNA; 30 bp, central 1-methyl-8-oxoguanine:A)	mutY full length assumed E37S	EMSA	double-stranded DNA			0.3 ± 0.2
AAAA (ssRNA)	rnr full length assumed R572K (Escherichia coli, UniProt P21499)	filter binding	RNA	EDTA present		5800 ± 1500
CTGACCAAAACAAAAAATCTCCAAAAAACTCGAAAAAAGTGGTCAGTT (dsDNA)	protein holo	fluorescence titration	double-stranded DNA, one strand shown	Mg2+ 5 mM, apparent, Hill fit	PLP	25.8 ± 7
DNA 1 CGATCATGGAGGCTAGCGCTCCCGTTACAG / DNA 2 CTGTAACGGGAGCGATAGCCTCCATGATCG (dsDNA; 30 bp, central 8-oxoguanine:A)	mutY full length assumed E37S	EMSA	double-stranded DNA			< 0.003

Excerpt of the above:
Strand	target	technique	form	notes	together with	Kd [nM]
GGGCUCACCACGCACGUGCGCUGGACUAUUACGCGUGAGGCCUCACCACGGCAAGCU (structured RNA)	Survival motor neuron protein 1-294 (Homo sapiens, UniProt Q16637)	filter binding	folded RNA	apparent		20
